Measurements pooled from the literature.
Every numbered part comes from another study and shows a few of its results, in no order. Substitutions count along the parent as printed.

Study 1
Target: CCND2, cyclin fold, Cln2 fusion (human)
Method: yeast growth competition, sequencing
Medium: yeast
Notes: weak parent motif
Relative to: not given
Direction: higher = stronger binding
Starting sequence: EXO1 docking peptide (human); KPECGRVQRAIFQ
| Substitution | normalised enrichment score |
| --- | --- |
| KPECGAVQRAIFQ [R6A] | -0.164 |
| KPECGRVQRAIFA [Q13A] | -0.109 |
| KPECGRAQRAIFQ [V7A] | 0.493 |
| KPECGRVQRAAFQ [I11A] | -0.102 |
| KPECARVQRAIFQ [G5A] | -0.0353 |
| KPECGRVQAAIFQ [R9A] | 0.0917 |

Study 2
Target: Interferon regulatory factor 5, full length, phosphomimetic (IRF5, Homo sapiens, UniProt Q13568-2, residues 1-514, S451D/S453D/S456D/S462D)
Method: protein-binding microarray
Molecule type: double-stranded DNA, one strand shown
Medium: in vitro
Concentration: 940 nM top
Notes: 60-bp whole probe
Added: salmon DNA 0.4 mg/ml
Relative to: random background probes
Direction: higher = stronger binding
All sequences stand within: GCCTAGCAC … GTCTTGATTCGCTTGACGCTGCTG
| Strand | fitted relative affinity |
| --- | --- |
| TTAGGGTTCGACTATCGGTTAGTGCTA | 0.371 z-score |
| GACGGTATCCTACTGCTCACGTGCTAG | -0.0547 z-score |
| AGAATCTTAGATATTAAACTGTGCTAG | -0.409 z-score |
| ACTGCATTCCCTTTCTCAACGTGCTAG | 1.43 z-score |
| TTATGTTTCGGGTTTCGGTTAGTGCTA | 8.6 z-score |
| ACCCGAGTCCCTATCTCCTCGTGCTAG | 0.0159 z-score |
| GACGGTTTCCTTTCCCTGATGTGCTAG | 1.72 z-score |
| ATAGGTTTCGGGTTTCGGTTAGTGCTA | 10.8 z-score |
| GACGGACTGGGACTGGTGACGTGCTAG | -0.639 z-score |
| GACGGTATCCTTCCCCTGACGTGCTAG | 0.451 z-score |
| GACGATTACAGTTTCGAGACGTGCTAG | 3.64 z-score |
| AGCCGAACAGCAATCGGATGGTGCTAG | -0.448 z-score |

Study 3
Target: RING finger protein unkempt homolog, zinc fingers 1-6, SBP tag (UNK, Homo sapiens, UniProt Q9C0B0, residues 30-357)
Sequence of UniProt Q9C0B0 (30-357, looked up): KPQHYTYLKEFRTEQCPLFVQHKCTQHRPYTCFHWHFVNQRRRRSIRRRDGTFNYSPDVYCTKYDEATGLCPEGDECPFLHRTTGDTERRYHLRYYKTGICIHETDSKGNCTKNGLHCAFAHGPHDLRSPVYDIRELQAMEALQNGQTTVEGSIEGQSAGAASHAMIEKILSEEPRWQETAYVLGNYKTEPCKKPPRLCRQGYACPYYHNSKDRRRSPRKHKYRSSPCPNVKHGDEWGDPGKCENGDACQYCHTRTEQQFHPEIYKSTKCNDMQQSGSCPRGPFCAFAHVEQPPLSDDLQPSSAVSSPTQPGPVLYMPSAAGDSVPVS
Method: RNA Bind-n-Seq
Molecule type: RNA
Medium: in vitro
Concentration: 100 nM
Notes: RNA with constant flanks, vertebrate orthologous sites, ends assumed
Relative to: input RNA pool
Direction: higher = stronger binding
All sequences stand within: GGGAGUUCUACAGUCCGACGAUC … CAACAGAGGAUUGAGCAUCA
| Strand | bound/input enrichment |
| --- | --- |
| GUGACUUUGGAAGUCCGCACAGUGUCAGUGCAGAUACUAUUUAGCCCGGGACUUGGUGACUGGGCUCAUUUUCUUCUUUCCAAUCGUAGGUCUCUGCCGCAAACAUGCUCCGCCACAUCU | 0.562 ratio |
| CACAUCUGGUGAUAUUUGGCCUGGCCUUUCAGCUUACGAUAAUAGUCCCAGAUCACCGCAUAGUCCUUCCCCUAUUGCUACACCACCUAGUCAGAGUUCAUCUUGCUCAGAUGCCCCCAU | 0.928 ratio |
| UUACAGUCAUUGAUGGACUCUAUUUUUUUAUUAUUACUUGGACCUUGGUCGUUUUUAUACUAGCAAGAUGUCUUGUUUUAAUUUGUGUUUUUUUUGGGGGGAGGGAGUGAACUUGCUGAU | 2.14 ratio |
| CCCUCUGAAUCCCAUAUCUUCUGUUUCAUAGUGCAGAAGUAUUCUUUUCAAUUAUAUUAUUAGUGGACUUGAUUUAAUUUUAGAGAAACUUUCAGUACAGAUACUGUGAGCUUACCUGGA | 1.06 ratio |
| CGUGCUUAUGCUCUUCUGUGAGAGAGAUGAAUUGGGAAGAACUGUCUCCGUUUUAUAGAUUAGUUUCUUUCUAAAUUAUGACCAAAAAUAUUUUGCUAUUUCUUUCUUUGUAUAUGGACA | 0.572 ratio |
| AAAAUUCAAUAGAAUUACACUAAUACUGACGUUCCAGUUGAAAAGAUAUCCAAGUGUGUGUUGGUAGUUACUAAAAGAAUUAUAGCUUGUAUUGCCUUGUAUUUAUAUCCCCAUGUUCAG | 1.08 ratio |
| CUCUUUCCUAGGUUGGAUCCAGUGGGAAAGUCAUAGGAAUUGAUCACAUUAAGGAGUUAGUAGAUGACUCAGUAAAUAAUGUCAGAAAGGAUGAUCCACUGCUUUUGUCUUCAGGGAGAG | 0.513 ratio |
| AUUCAAGCCUGUGGUGCCCUGGCCUCACGUCGAAGGGAUAGAAGUGGACUUAGAGUCGAUCCGAAGAAAGAACAAGGCCAGAAAUGAGCAAGAGCGCCACGCCGGCGGAGACGAGCAGAG | 0.229 ratio |
| ACAGAAGAAGAGCUCACAACUCAGAAGGAACUAUUAGAAGAGUUUCUAAUGGCUGAAAGCUAGGAAAAAUUAGGACAAUUUUACAAAUGAGCCAUCAAAACAAAACAAAAAGAAAUGGAA | 1.36 ratio |

Study 4
Target: ABI1, truncated, D143A, DHFR fusion (Arabidopsis thaliana, UniProt P49597)
Method: DHFR PCA, dose-response
Medium: yeast
Notes: Hill fit, mean, not affinity
Added: (+)-ABA, dose series
Direction: lower = more sensitive
Starting sequence: PYL1, truncated, DHFR fusion (Arabidopsis thaliana, UniProt Q8VZS8); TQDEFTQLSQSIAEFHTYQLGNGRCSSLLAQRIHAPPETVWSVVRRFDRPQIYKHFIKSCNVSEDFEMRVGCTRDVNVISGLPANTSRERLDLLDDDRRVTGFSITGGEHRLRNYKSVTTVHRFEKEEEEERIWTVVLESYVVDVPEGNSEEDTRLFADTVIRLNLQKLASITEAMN
| Substitution | ABA EC50 |
| --- | --- |
| R88I | 1.53 µM |
| T106W | 14.2 µM |
| F56Y | 16 µM |
| F56G | 434 µM |
| N177F | 4.32 µM |
| Q51V | 95.3 µM |
| I105T | 37.9 µM |
| P50I | 667 µM |
| Q7W | 1.63 µM |
| S63T | 2.67 µM |
| N114A | 50.5 µM |
| P36I | 44.7 µM |
| H55I | 0.32 µM |
| R69P | 150 µM |
| C72W | 24 µM |
| V137C | 72.8 µM |
| N77M | 3.12 µM |

Study 5
Target: RNA binding protein fox-1 homolog 2, RRM domain, GST-SBP tag (RBFOX2, Homo sapiens, UniProt O43251-10, residues 100-194)
Method: RNA Bind-n-Seq
Molecule type: RNA
Medium: in vitro
Concentration: 365 nM
Notes: natural RNA segment, single round, ends assumed
Relative to: no-protein control
Direction: higher = stronger binding
All sequences stand within: GGGAGUUCUACAGUCCGACGAUC … UGGAAUUCUCGGGUGCCAA
Target sequence (chain): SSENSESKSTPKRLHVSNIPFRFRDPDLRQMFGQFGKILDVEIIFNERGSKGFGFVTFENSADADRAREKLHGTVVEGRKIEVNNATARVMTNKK
| Strand | RBNS enrichment (R) |
| --- | --- |
| CACACAAAAAAAGGGCAGUGUUUGAAGAUUGUUGAUUUUUUUCUGGGGAUAAUCUAUAUUAUAUUGACUUCCUAUUACUUAUUAUAAACCUGUGUUUGUAUUGGAGAUGU | 0.794 |
| UGUUAAAUAUGCACUGACCUCAGAAAGUCGAGUUCAAAAGGGAGAUAAAAUUGCCAAAGUGAUCCAAGGAUUGUGCAUGUUGGGAAACCCAUAUGAGAGAAAGGAUUCUC | 7.5 |
| GUCAUGUAGCUGUUUUAAGAAAUCUGGCCCAGGGUGUUUGCAGCUGUGAGAAGUCACUCACACUGGCCACAAGGACGCUGGCUACUGUCUAUUAAAAUUCUGAUGUUUCU | 0.413 |
| UAUUAGUUUUUUAACCUGCAAUUUGCCUCAGCAACAAAGAAAAAGUGAAUUUUUAAUGCUGAAGAUAAAGUAAGCUAAAGUACCAGCAGAAGCCUUGGCUAUUUAUAGCA | 0.638 |
| UGGUGAAGAGCAUUUUUGUGAAGUGGGUUCUGCAAGGAGCCUAUAAAGCCAAGGGUGGUGUCCAUUUCUGGGAAUGGUUAAACACAAAAGGCUGAUAGCUGGUAUCACAU | 0.325 |
| CACGAAGGGCAUCCGCAAUGUUGGUUUCACUGAGAGCUGCCUCCUGGUCUCUUCACCACUGUAGUUCUCUCAUUUCCAAACCAUCAGCUGCUUUUAAAAUAAGAUCUCUU | 0.42 |
| GGCUCCGGAGGGGACCCAGCUCCUCUGAGCCAUACCAACCAUCGUCCAGCCCUCCUGCACGGAUGCUGUUGCCGGCAGAGCACAGCCCACUGGGAUCACAGCAUUUCGGG | 0.435 |
| UCACCAGGGUUGACUGCCUUCAGGAAAUGCUGGCCCCAAAGGAUUUGAGGAAAACUUGACUGUCAGGCUAGCUGACUCUAGCUUUAUUUCUGCUGCCAGGAAGCACAGUU | 0.413 |
| UAAAGUUAUUUAAGAAUAAAAAGAACUUUGGCUAUGAGAUGUAAUCACCUUGCCUUCCUCUCUAGCAUUCUGCAGGAGUGAUGCCCACGGAGCCUUGGGCUUCUGCGUGU | 0.354 |
| AAACUAUCAGGAAAAAAACCAAAACUUUAUACCAAUGAUUUAGUAAUUUUGAGGCAUAGGGUAGCUUACGUAGUGGAGGAUGUGCCAAAUAUUCUCUUCAAAUGCCACCU | 0.275 |
| UGCAUCUUGCCUUGGCUUGAGCCUUUUCGUUUUCAAUGCUGACUUCUCCCCUUUCUCUCCUGUGCUCACCUUACCUUUCCAGAGUGUAAGGGACAACUUUUAAGGAGGCG | 0.229 |
| AUAUGUGUGUGUAGGGGGAGGAUAAGAACUGAAUUAUUUGAAACAGGUUAUUAUUUGAAACUGUAUUACUCUACUCAGUAUUUUGGCCAGGUCCCAGUCCCGGGUUGCAG | 0.907 |

Study 6
Target: Sal-like protein 4, full length isoform A (SALL4, Homo sapiens, UniProt Q9UJQ4, residues 1-1053)
Sequence of UniProt Q9UJQ4 (whole entry, looked up): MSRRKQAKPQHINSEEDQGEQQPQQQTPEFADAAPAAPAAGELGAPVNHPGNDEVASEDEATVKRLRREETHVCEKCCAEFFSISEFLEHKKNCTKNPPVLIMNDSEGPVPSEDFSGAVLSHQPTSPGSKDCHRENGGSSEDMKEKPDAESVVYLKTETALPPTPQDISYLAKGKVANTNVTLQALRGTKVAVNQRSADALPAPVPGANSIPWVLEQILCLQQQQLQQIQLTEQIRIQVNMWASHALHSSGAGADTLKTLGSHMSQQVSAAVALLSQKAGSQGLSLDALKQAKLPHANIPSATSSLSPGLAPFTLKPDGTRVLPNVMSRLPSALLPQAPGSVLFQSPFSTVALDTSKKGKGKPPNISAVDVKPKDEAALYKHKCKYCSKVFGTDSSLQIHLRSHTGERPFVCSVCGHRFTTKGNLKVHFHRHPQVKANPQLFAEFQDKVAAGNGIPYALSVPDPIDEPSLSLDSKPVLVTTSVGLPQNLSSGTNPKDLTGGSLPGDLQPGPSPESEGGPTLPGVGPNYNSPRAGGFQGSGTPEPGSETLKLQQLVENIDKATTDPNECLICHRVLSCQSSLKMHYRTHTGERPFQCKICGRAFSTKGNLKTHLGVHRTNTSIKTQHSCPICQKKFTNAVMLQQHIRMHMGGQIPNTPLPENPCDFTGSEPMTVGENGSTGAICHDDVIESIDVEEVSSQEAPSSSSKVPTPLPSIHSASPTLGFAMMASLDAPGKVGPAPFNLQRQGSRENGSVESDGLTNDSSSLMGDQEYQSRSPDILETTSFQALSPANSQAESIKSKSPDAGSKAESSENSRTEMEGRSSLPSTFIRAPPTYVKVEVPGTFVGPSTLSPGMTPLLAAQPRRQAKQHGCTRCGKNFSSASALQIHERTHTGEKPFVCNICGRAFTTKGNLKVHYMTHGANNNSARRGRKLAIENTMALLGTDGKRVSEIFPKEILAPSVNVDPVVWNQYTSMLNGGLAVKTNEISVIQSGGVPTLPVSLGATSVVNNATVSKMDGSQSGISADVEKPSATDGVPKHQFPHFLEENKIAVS
Method: universal PBM
Molecule type: double-stranded DNA, one strand shown
Medium: in vitro
Concentration: 600 nM
Notes: 8-mer, flanks averaged, mean of replicates
Direction: higher = stronger binding
| Strand | E-score |
| --- | --- |
| ATCTATTG | 0.248 |
| AGAAGCGA | -0.0123 |
| CGCATATC | 0.221 |
| ATTAATAG | 0.427 |
| AAGTTCCC | -0.238 |
| GCCTATCA | -0.0669 |
| CACAGTCA | 0.0348 |
| CATTGAGC | -0.0898 |
| ACCTCAAG | -0.117 |
| GTTTGAAA | 0.215 |
| ATTCAGAA | 0.168 |
| GTTGACCA | -0.136 |
| AATAGAGG | 0.0319 |
| AAGCCCTA | 0.0652 |
| CAATGAAC | 0.0418 |
| TGAGTCAA | 0.12 |

For quick reference, copied from above (study 1):
| Substitution | normalised enrichment score |
| --- | --- |
| KPECGRVQAAIFQ [R9A] | 0.0917 |
| KPECARVQRAIFQ [G5A] | -0.0353 |
| KPECGRVQRAAFQ [I11A] | -0.102 |
| KPECGAVQRAIFQ [R6A] | -0.164 |
| KPECGRVQRAIFA [Q13A] | -0.109 |
| KPECGRAQRAIFQ [V7A] | 0.493 |
